Experimental data gathered from unrelated publications.
A part holds a random share of what one study measured. Substitutions count along the parent as printed.

Block 1
Target: CCNF, cyclin fold, Cln2 fusion (human)
Method: yeast growth competition, sequencing
Matrix: yeast
Notes: strong parent motif
Relative to: not given
Direction: higher = stronger binding
Starting sequence: EXO1 docking peptide (human); KPECGRVQRAIFQ; partner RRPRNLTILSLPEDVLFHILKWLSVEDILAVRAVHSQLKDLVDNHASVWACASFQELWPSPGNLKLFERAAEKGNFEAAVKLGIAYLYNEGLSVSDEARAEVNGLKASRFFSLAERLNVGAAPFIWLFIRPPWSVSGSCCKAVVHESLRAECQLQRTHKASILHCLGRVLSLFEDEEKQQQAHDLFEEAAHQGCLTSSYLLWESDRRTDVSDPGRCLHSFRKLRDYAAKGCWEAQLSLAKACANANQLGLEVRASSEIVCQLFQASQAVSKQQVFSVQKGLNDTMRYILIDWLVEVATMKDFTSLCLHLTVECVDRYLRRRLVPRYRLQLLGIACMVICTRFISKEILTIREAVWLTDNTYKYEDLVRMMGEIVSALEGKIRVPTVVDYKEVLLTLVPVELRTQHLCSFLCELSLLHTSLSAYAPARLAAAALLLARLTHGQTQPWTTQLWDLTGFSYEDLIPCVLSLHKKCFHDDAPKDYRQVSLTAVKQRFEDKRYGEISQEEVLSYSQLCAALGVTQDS
Change	normalised enrichment score
KAECGRVQRAIFQ [P2A]	1.86
KPECGRVARAIFQ [Q8A]	2.39
KPACGRVQRAIFQ [E3A]	2.12
KPECGRVQRAAFQ [I11A]	0.301
KPECGRVQRAIAQ [F12A]	-0.22
KPECGAVQRAIFQ [R6A]	1.64

Block 2
Target: RING finger protein unkempt homolog, zinc fingers 1-6, GST-SBP tag (UNK, Homo sapiens, UniProt Q9C0B0, residues 30-357)
Method: RNA Bind-n-Seq
Form: RNA
Matrix: in vitro
Tested at: not given
Notes: RNA with constant flanks, ends assumed
Relative to: input RNA pool
Direction: higher = stronger binding
Residues (chain): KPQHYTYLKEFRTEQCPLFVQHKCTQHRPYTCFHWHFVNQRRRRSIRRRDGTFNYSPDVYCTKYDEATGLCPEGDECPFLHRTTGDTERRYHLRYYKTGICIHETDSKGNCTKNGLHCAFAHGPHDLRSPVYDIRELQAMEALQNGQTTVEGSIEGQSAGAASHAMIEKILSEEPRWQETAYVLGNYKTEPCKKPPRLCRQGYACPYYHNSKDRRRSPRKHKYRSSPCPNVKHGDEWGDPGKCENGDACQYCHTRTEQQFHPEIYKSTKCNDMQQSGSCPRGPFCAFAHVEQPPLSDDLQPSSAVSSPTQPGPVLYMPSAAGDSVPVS
Oligonucleotide	bound/input enrichment [ratio]
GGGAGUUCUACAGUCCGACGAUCUUAGCUUAUGGCAAUCAAGAGAGCAAGCUCAUCAUUCUGGCCAGUGGUGGACCCCAAGCCUCCGUAAACAUAAUGAGGACCUACACUUAUGAGAAGCUUCUGUGGACCACAAGCAGAGUGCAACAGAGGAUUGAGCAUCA	0.352
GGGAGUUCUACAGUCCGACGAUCAUCAAGCAACUGGUUUCCGGAGCUGAGACACUGAAUCUUGUUGCCGAAAUCCUUAAAUCUACCGACAGAAUUUCUGAAGUUAAAGACGAGGAGGAAGACUCUUGAGGACCCCUGGGUGUUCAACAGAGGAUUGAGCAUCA	0.232
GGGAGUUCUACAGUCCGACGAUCCAAGAAACAGAAGAUGCUAUUGGAUAUUGCUUGACAUUUGAACACAGAGAAAGAAUGUUUAACCGACUCCAGGGAACAUGCUUCAAAGGACUUAAUGUUCUCAAGCAAUGUUGAGUUGGCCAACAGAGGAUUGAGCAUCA	0.0946
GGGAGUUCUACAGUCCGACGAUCCAGUUGAAGUAUCAGAGAAUCUUGGAACGAUUAGAAAAGGAGAACAAAGAAUUGAGAAAAUCCGUAUUGCAGAAAGAUGACAAAGGCAUUCAUCAUAGAAAGCUUAAGAAAUCUUUGAUUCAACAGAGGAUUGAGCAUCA	0.252
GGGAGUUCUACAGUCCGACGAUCCGGGGAGCUUUCUGUGAAGUGAGACCAGAUGAUAAAAGAAUUCUGGAAUUUUACAGCAAGUCCGGAUGUUUUGAAAUUGCAAAAAUGGAAGGAUUUCCAAAGGAUGUGGUUAUACUUGGUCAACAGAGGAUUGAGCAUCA	0.163
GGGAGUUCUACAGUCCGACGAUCAUAUCUACAUGCUGUCAGUGAGGCUCCAGGAGGCUUUCCUAACCCUGGGAAGUUAUUUGGGCACCGCGCUCUAUGUUUAAUAAAGGUUUUUUAAUAGAUGUUUUAUUCAGUACAUCUUCCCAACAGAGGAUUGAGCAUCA	1.2
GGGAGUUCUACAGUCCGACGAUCCCUCCCCAUUACCCCUAAAGUAGAACAUUUUUUAAAUUGUGUUGCCACCACUUCUAAAAAUUCCGCAAUAUUAGAAUAGGAUACUAGUGAAGUAAGAAAUUUUGCUUGUUGUUUUGCAAACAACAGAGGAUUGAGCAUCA	310
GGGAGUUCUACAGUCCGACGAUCAUUUUCCUGUGCUCAAUGUGUAAAUUGUAUCAUAACUCAUUGUGGUUGAUUUCACUUUGAUUCCGUGGCAUCUUAAUAAAUGGGGGUGUUACUGAAUCACUCUUCCCACUUCCAUUUCUUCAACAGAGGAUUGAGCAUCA	0.267

Block 3
Target: Interferon regulatory factor 7, full length, phosphomimetic (IRF7, Homo sapiens, UniProt Q92985, residues 1-503, S101K/S471D/S472D/S475D/S476D/S477D/S483D/S484D/S487D)
Sequence of UniProt Q92985 (whole entry, unmodified, looked up): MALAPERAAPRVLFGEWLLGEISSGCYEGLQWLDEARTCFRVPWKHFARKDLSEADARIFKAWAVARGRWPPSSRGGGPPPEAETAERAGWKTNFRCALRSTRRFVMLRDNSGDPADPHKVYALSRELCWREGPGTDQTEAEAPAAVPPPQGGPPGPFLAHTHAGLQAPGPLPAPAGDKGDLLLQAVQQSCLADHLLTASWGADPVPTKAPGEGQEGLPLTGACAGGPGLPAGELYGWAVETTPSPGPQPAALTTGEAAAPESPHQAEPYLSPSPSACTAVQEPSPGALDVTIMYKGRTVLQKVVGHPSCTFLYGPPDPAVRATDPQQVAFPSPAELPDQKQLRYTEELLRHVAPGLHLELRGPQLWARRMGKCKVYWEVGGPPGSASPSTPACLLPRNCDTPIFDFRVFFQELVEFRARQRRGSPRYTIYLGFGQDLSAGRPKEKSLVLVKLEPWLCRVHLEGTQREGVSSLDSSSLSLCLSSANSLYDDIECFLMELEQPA
Method: protein-binding microarray
Form: double-stranded DNA, one strand shown
Matrix: in vitro
Tested at: 250 nM
Notes: 60-bp whole probe
With: salmon DNA 0.4 mg/ml
Relative to: random background probes
Direction: higher = stronger binding
All sequences stand within: GCCTAGCAC … GTCTTGATTCGCTTGACGCTGCTG
Oligonucleotide	log fluorescence
GACGGTTTCGACACTGGGGAAGTGCTA	4.48 z-score
TTAGGATTCCTTTTCCTTTAGTGCTAG	2.5 z-score
CCAGCTCTTTCGTTACTTCCTGTGCTA	0.286 z-score
GACGGTCTCCTTAGCCTGACGTGCTAG	-0.43 z-score
TTAGGGCTGGACTATCGGTTAGTGCTA	-0.902 z-score
TCAAGTCTCATATTTATACTGTGCTAG	0.85 z-score
GACGAGCTCAGTATCGAGACGTGCTAG	-0.132 z-score
TTAGGTTTCGACACTGGCTTAGTGCTA	3.55 z-score
GACGGTATCGACTTTTGGGACGTGCTA	0.125 z-score
TCATGTTTCCTCTTTCAACTGTGCTAG	2.79 z-score
TTATATATCAGTTTCGATTAGTGCTAG	8.79 z-score
GACGGACTGGGGTATCTGGACGTGCTA	-0.689 z-score
TTAGGTCACCTTATCCTTTAGTGCTAG	0.308 z-score
TTAGAGCTGAGACTGGATTAGTGCTAG	-0.816 z-score
TTAGGTTTCGGTCCCGGTTAGTGCTAG	5.62 z-score
TCAGCTTCTTTTTTATTACTGTGCTAG	0.51 z-score
GACGATATCGACACTGGGGACGTGCTA	-0.239 z-score
TTATGTATCGGACTGGGTTAGTGCTAG	0.309 z-score
GACGGTATCGGTATCGGGACGTGCTAG	1.38 z-score

Block 4
Target: Ras GTPase-activating protein-binding protein 1, C-terminal RGG region (G3BP1, Homo sapiens, UniProt Q13283)
Sequence of UniProt Q13283 (whole entry, looked up): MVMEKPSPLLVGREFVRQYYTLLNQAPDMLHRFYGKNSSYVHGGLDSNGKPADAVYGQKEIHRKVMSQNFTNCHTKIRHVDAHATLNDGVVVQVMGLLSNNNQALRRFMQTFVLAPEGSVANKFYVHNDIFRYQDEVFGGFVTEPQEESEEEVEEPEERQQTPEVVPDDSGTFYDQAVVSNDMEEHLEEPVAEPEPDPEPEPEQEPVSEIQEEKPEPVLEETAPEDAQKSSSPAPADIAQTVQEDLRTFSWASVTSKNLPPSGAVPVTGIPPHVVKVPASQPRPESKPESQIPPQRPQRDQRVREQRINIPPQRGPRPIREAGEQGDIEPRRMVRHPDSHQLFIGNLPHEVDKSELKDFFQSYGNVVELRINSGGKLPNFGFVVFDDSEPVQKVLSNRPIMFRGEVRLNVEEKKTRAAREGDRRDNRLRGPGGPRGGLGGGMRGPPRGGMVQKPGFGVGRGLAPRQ
Method: RNA Bind-n-Seq
Form: RNA
Matrix: in vitro
Tested at: 1 µM
Notes: whole 134-nt RNA, ends assumed
With: 150 mM KCl
Relative to: input library
Direction: higher = stronger binding
Oligonucleotide	log2 enrichment
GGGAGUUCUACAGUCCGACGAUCUCAAGUCCUGUGCUACACAUCGUAUGUACCGAAUCGGUUUGGGUUUGGGGUUUGGAAAGUAUUAUGUUACGCCGUUCGGAUCUGCACUUCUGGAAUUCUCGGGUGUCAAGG	-1.01
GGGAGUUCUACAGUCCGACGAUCCCUGUGCUACACAUCGUAUGUACCGAAUCGGGGUUUUUUUGGGGUUUUUGGGGUUUGGGGAAAGUAUUAUGUUACGCCGUUCGGAUCUGCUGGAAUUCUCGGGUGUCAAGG	0.0531
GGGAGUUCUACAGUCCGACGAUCAAGUCCUGUGCUACACAUCGUAUGUACCGAAUCGGGAGGGUUUUUGGGUUUUUGGGAAAGUAUUAUGUUACGCCGUUCGGAUCUGCACUUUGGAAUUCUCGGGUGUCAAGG	-0.135
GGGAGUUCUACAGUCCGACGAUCCUGUGCUACACAUCGUAUGUACCGAAUCGGGUUUUUUUGGGGUUUUUUUGGGGUUUUUUUGGAAAGUAUUAUGUUACGCCGUUCGGAUCUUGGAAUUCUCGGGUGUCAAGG	-0.825
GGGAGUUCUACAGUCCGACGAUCCCUGUGCUACACAUCGUAUGUACCGAAUCAAAUUUUUUUAAACCCCCCCAAACCCCCAAAAAAGUAUUAUGUUACGCCGUUCGGAUCUGCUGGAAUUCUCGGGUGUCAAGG	-1.13
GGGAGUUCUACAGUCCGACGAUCACCAUGCAGCUGGGCAUCUUUGGGAAGUGGGGCAAGGGGGGGAUAGGGAGGGGGGUAACACUUUGGGAACAGGUGGUCCCAGGUCGUUUCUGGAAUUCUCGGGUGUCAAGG	-0.494
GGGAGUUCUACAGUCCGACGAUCUCCUGUGCUACACAUCGUAUGUACCGAAUCGGGUUUUUUUGGGUUUGGGAAAAAAAGGGAAAGUAUUAUGUUACGCCGUUCGGAUCUGCAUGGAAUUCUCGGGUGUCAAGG	-0.801
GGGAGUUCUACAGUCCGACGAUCUGGCCCUGGUGGCAUGCGGGGAGGAAGAGGUGGCCUCAUGGAUCGUGGUGGUCCCGGUGGAAUGUUCAGAGGUGGCCGUGGUGGAGAGAGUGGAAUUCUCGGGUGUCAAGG	3.77
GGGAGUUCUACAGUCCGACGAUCGUCCUGUGCUACACAUCGUAUGUACCGAAUCGGGGUUUUUGGGGAGGGGUUUUUGGGGAAAGUAUUAUGUUACGCCGUUCGGAUCUGCACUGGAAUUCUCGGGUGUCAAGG	1.93

Single results of other studies
Substance	target	test	system	conditions	how to read	measurement	result
PhoQ, residues 284 288 289 292 302 303 SCCLKL	PhoP, residues 12 14 15 18 19 NHFIF (Escherichia coli, UniProt P23836)	Sort-seq, measured: YFP reporter	E. coli	PhoQ-PhoP variant library, with: 10 µM Mg2+	relative to: high Mg2+ state, higher = stronger signaling	fold induction	2.77

Repeated from above (block 4):
Oligonucleotide	log2 enrichment
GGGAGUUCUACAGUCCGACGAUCCUGUGCUACACAUCGUAUGUACCGAAUCGGGUUUUUUUGGGGUUUUUUUGGGGUUUUUUUGGAAAGUAUUAUGUUACGCCGUUCGGAUCUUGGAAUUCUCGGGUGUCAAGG	-0.825
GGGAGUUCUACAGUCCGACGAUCCCUGUGCUACACAUCGUAUGUACCGAAUCAAAUUUUUUUAAACCCCCCCAAACCCCCAAAAAAGUAUUAUGUUACGCCGUUCGGAUCUGCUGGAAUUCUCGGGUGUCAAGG	-1.13
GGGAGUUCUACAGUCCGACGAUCACCAUGCAGCUGGGCAUCUUUGGGAAGUGGGGCAAGGGGGGGAUAGGGAGGGGGGUAACACUUUGGGAACAGGUGGUCCCAGGUCGUUUCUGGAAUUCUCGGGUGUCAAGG	-0.494
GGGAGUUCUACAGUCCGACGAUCUCCUGUGCUACACAUCGUAUGUACCGAAUCGGGUUUUUUUGGGUUUGGGAAAAAAAGGGAAAGUAUUAUGUUACGCCGUUCGGAUCUGCAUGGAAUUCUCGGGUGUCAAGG	-0.801
